Experimental data pooled from the literature.
Every numbered part comes from another study and shows a few of its results, in no order. Substitutions count along the parent as printed.

Block 1
Target: ABI1, truncated, D143A, DHFR fusion (Arabidopsis thaliana)
Technique: DHFR PCA, deep sequencing
Sample: yeast
Notes: methotrexate growth selection, single substitutions
Together with: (+)-ABA 710 µM
Baseline: wild-type fitted maximum
Reading: higher = stronger binding
Measurement: relative binding score
Starting sequence: PYL1, truncated, DHFR fusion (Arabidopsis thaliana); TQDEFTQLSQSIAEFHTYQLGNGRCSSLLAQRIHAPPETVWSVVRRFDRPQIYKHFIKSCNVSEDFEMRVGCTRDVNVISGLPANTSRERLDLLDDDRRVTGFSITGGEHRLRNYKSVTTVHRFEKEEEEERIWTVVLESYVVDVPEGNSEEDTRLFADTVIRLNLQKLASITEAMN; partner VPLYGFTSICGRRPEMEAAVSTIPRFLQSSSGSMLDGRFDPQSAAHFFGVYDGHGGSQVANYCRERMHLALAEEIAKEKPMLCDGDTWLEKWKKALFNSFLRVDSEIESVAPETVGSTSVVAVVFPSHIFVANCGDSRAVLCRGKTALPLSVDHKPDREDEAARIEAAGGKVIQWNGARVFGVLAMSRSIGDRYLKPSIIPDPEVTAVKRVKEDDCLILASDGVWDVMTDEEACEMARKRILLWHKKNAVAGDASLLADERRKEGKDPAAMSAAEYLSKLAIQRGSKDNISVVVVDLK
K126T: 112%
L29F: 75.5%
S87G: 40.8%
E67F: 99.2%
R74Y: -28.8%
E174G: 92.9%
S26Q: 102%
D3V: 95.4%
R132K: 117%
H16C: 21.3%
F56D: 11.8%
R32L: 93.3%
E129D: 109%
E14S: 89.9%
V142H: 93.8%
E139S: 96.7%

Block 2
Target: Fragile X messenger ribonucleoprotein 1, C-terminal low-complexity region (Fmr1, Mus musculus, UniProt P35922)
Technique: RNA Bind-n-Seq
Molecule type: RNA
Sample: in vitro
Concentration: 200 nM
Notes: whole 134-nt RNA, ends assumed
Together with: 150 mM LiCl
Baseline: input library
Reading: higher = stronger binding
Measurement: log2 enrichment
All molecules: 7-deaza-guanosine replaces G
Constant ends, left off below: GGGAGUUCUACAGUCCGACGAUC … UGGAAUUCUCGGGUGUCAAGG
CACAGACAACACGCACCCACACAGACACAGAGGGAUGGGGUUGGGAUGGGGACAGGGUGCACAGCAGGGCGGGGUAGGACCCCAGCCCCU: -0.00418
UGUGCUACACAUCGUAUGUACCGAAUCGGGGUUUUUUUGGGGUUUUUUUGGGUUUUUUUGGGGAAAGUAUUAUGUUACGCCGUUCGGAUC: 2.04
CUCAAGUCCUGUGCUACACAUCGUAUGUACCGAAUCGGAGGUUUUUGGAAAGGAAAGUAUUAUGUUACGCCGUUCGGAUCUGCACUUCCA: -0.525
UUGUGAGCUGCAAGCUAGGCUGCAGGCCCAGGAAGAACAGCAUCAGGAAGUCCAGAAGGCAAAAGAAGCAGACAUAGAGAAGCUGAACCA: -2.23
UGGCCCUGGUGGCUUGCGGGGAGGAAGAGGUGGCCUCAUGGAUCGUGGUGGUCCCGGUGGAAUGUUCAGAGGUGGCCGUGGUGGAGACAG: 0.225
AGUCCUGUGCUACACAUCGUAUGUACCGAAUCGGGGCCCCCGGCCCCCGGCCCCCGGGAAAGUAUUAUGUUACGCCGUUCGGAUCUGCAC: -2.25
GCAGGAAGUAAAAACAAAUGGAAAUGCUUCGAAAAGUGGCAGGGGUGGGGGUUGCUAAGGAAAGGGUGGGAUGGGAGUGGGUAAAGAGUU: 1.53
ACCAUGCAGGUGGGCAUCUUUAGGAAGUGGGGCAAGGGGGGGAUAGGGAGGGGGGUAACACUUUGGGAACAGGUGGUCCCAGGUCGUUUC: 1.36
UUCCUCAAGUCCUGUGCUACACAUCGUAUGUACCGAAUCGGAGGAGGGAGGAAAGUAUUAUGUUACGCCGUUCGGAUCUGCACUUCCAGC: -2.21
CAAGUCCUGUGCUACACAUCGUAUGUACCGAAUCGGGUGGGUUUUUUUGGGUGGGAAAGUAUUAUGUUACGCCGUUCGGAUCUGCACUUC: -0.0421
UAACUUUAGAGGAGGAUCUGAUGGAUAUGGCAGUGGACGUGGAUUUGGGGAUGGCUAUAAUGGUUAUGGAGGAGGACCUGGAGGUGGCAA: 0.113

Block 3
Target: CCND3, cyclin fold, Cln2 fusion (human)
Technique: yeast growth competition, sequencing
Sample: yeast
Notes: weak parent motif
Baseline: not given
Reading: higher = stronger binding
Measurement: normalised enrichment score
Starting sequence: GMNC docking peptide (human); KNAKRNLSSEFAN
N6G: 0.627
K4C: -0.0747
K4Q: 0.306
A12D: -0.22
N2D: 0.125
E10N: 0.0229
E10I: -0.102
K4I: 0.331
S9K: -0.0615
N6F: -0.11
N6L: -0.299
N2F: 0.279
R5E: 0.581
E10H: -0.0164
N2L: 0.165
R5Y: 0.146
S9F: 0.2
L7Q: 0.124
S9M: 0.239
E10G: 0.0659
R5V: -0.0744
A3Q: 0.141
N6S: 0.142
F11N: -0.207
K4M: 0.204

Block 4
Target: RNA binding protein fox-1 homolog 2, RRM domain, GST-SBP tag (RBFOX2, Homo sapiens, UniProt O43251-10, residues 100-194)
Technique: RNA Bind-n-Seq
Molecule type: RNA
Sample: in vitro
Concentration: 365 nM
Notes: natural RNA segment, single round, ends assumed
Baseline: no-protein control
Reading: higher = stronger binding
Measurement: RBNS enrichment (R)
Constant ends, left off below: GGGAGUUCUACAGUCCGACGAUC … UGGAAUUCUCGGGUGCCAA
Target sequence (chain): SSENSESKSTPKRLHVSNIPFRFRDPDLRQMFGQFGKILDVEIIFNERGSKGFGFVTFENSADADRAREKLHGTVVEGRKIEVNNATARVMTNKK
CAGCCCCAAUAGUCCCUGCUCCUCUUAGAAUCUUCACCAAGUGGCAGGCCACCUCUGGGCAGGACCACCUGCGUCUGGCACCCAGGAGGUGAGGCAGACACCAUGGUUAG: 0.288
CUGGGAUAAAAGGCAGAGUUAGUUUCUCUCAUAGCAUAUAUUGGCAGAAAUGGUUCUGCAAGAUGCUCAAAGGCAUGGAAGAAACAUAUUACUAUUUAUUGUUAAUAUCA: 1.13
CGGUGUAAUUGCAUUAUAGCUAUGUGCCUUGUGGUAAGCACUAUGUACUCUCUGCAUUGUCCAAAUGUCUUACUUUAAGGUGUUUCUUCUGUCUUUUCGACUAAGUAGUA: 0.541
UUCAUGAUCAGUAGGAAGCAAAUUCUAAGACCUCAGGGUGUCUUUCUGAGUCUCUCAUUUCUUUAGGGAUGUGGAGAGAAGAUGAAGUAUAGCCGUGUGUAGUGUCGCCA: 0.257
ACCGUUAAAAUAUGCACUAAGUCUCUUUUUUUUACAAAGGCUGAAUUCAGCAAGGCGCUAACUUGCUUAAAUGUGAAUUACUAACUUCUAAAACUGUAAUUUGAUUCACA: 0.618
UCAUCCUUGCUACUUGAGGCUGUUAUUUCCCUCCGAGUAUUUAAGGAGCCCAAACACCUUGGUCUUCCUGGGUGGGGGCAUAAUUAAGGGAAGGGAGUGUAUAAGGAAGG: 0.281
UCUGAUUCAUAUUUUAGGACUUUUUGUCAACGAAAUUGGUUUUGAUCCCUUUGGGUACCAUUUUUAUUGUUUUAUGUAGAAUGUUAGAAAUUACCACUAAUUUACCUGGC: 0.327
GCUGUCAGCUGGACCUGGUGGCUUGUGGUUGAUGGUCACUAUUAGUGGGUGAGUGGGGAUGACCUGGCUUCCAAGAGGACUGUCACUGUGGACACCAAAAUGGCUUAACU: 0.931
GGGGGAGCCCGGACACCCAGAGCUCCCCGAGUUGGGGGUGCCCGUCUGGAGCGCCCCCGUCAGCCCCUGGCGGUGGGAGGUGAGAGCGAGUGGUUUAAGUGCCUGAUUAC: 0.57
UGACGUAGCCCACGGAGGCAGGCGCUGGAUCGUCACGUCACAUCAGCCCCUGGCGACAAGCAGUGUCUAGAAGAGGAUCUGGAGCCAGGCAGACUGGCUGCUUUUAUUUU: 0.405
UCUGAGAUUCUGGUCCCUGGAAAUCCCUUUCUGCUAGUGGUGAGCAUGUAAGUGUUAAGUUUUUAAUCUGGGAGCAGGGCAUAGGAAGAAAAUGUCAGUAGUGCUAAUGC: 5.73
CAGUAGCAUGGCUAUUGCUGAGGUUAUUUUACCUAAUAAUUAGAACUUUGUAUUUACAAAGCAAGUAGAGGUCUUAAAUUUGCUUCAAGAAGCAGUUGCUCCACUGGAAU: 0.641

Block 5
Target: Sal-like protein 4, full length isoform B (SALL4, Homo sapiens, UniProt Q9UJQ4-2, residues 1-616)
Technique: universal PBM
Molecule type: double-stranded DNA, one strand shown
Sample: in vitro
Concentration: not given
Notes: 8-mer, flanks averaged, mean of replicates
Reading: higher = stronger binding
Measurement: E-score
Target sequence (chain): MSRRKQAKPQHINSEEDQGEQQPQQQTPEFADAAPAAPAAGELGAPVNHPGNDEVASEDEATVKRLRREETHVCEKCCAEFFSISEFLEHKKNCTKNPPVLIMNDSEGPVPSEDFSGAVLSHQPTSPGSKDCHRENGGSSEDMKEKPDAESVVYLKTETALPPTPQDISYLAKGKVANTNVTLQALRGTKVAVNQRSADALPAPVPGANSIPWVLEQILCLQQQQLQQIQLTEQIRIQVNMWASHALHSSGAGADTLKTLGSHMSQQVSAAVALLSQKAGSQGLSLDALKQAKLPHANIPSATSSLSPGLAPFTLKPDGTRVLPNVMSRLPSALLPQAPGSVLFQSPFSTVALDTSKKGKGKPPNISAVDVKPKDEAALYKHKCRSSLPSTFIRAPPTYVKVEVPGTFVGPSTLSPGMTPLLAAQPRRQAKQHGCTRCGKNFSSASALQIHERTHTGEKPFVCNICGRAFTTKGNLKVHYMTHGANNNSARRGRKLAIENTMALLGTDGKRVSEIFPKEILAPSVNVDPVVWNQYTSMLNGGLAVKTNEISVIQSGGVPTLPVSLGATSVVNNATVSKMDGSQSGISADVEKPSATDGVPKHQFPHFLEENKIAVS
TCCTCACA: -0.0354
GAACACTA: 0.156
GCAATGTA: 0.0851
CGCTGCCG: -0.343
ATCTGTCG: -0.0448
ATTAACAA: 0.317
GCCGGCTA: -0.182
GGGTTGAA: -0.0791
ACCAACCT: -0.113
ATCGGGCA: -0.206
GAAGTGAC: -0.0415
TACGAAGA: 0.229
ATATTTCA: 0.387
AGCGAGGC: -0.248
GTTCCCTA: 0.00598
AACTATCT: 0.153
CCAATCAC: -0.0858

For quick reference, copied from above (block 2):
CACAGACAACACGCACCCACACAGACACAGAGGGAUGGGGUUGGGAUGGGGACAGGGUGCACAGCAGGGCGGGGUAGGACCCCAGCCCCU: -0.00418
UGUGCUACACAUCGUAUGUACCGAAUCGGGGUUUUUUUGGGGUUUUUUUGGGUUUUUUUGGGGAAAGUAUUAUGUUACGCCGUUCGGAUC: 2.04
CUCAAGUCCUGUGCUACACAUCGUAUGUACCGAAUCGGAGGUUUUUGGAAAGGAAAGUAUUAUGUUACGCCGUUCGGAUCUGCACUUCCA: -0.525
UUGUGAGCUGCAAGCUAGGCUGCAGGCCCAGGAAGAACAGCAUCAGGAAGUCCAGAAGGCAAAAGAAGCAGACAUAGAGAAGCUGAACCA: -2.23
UGGCCCUGGUGGCUUGCGGGGAGGAAGAGGUGGCCUCAUGGAUCGUGGUGGUCCCGGUGGAAUGUUCAGAGGUGGCCGUGGUGGAGACAG: 0.225
AGUCCUGUGCUACACAUCGUAUGUACCGAAUCGGGGCCCCCGGCCCCCGGCCCCCGGGAAAGUAUUAUGUUACGCCGUUCGGAUCUGCAC: -2.25
GCAGGAAGUAAAAACAAAUGGAAAUGCUUCGAAAAGUGGCAGGGGUGGGGGUUGCUAAGGAAAGGGUGGGAUGGGAGUGGGUAAAGAGUU: 1.53
ACCAUGCAGGUGGGCAUCUUUAGGAAGUGGGGCAAGGGGGGGAUAGGGAGGGGGGUAACACUUUGGGAACAGGUGGUCCCAGGUCGUUUC: 1.36
UUCCUCAAGUCCUGUGCUACACAUCGUAUGUACCGAAUCGGAGGAGGGAGGAAAGUAUUAUGUUACGCCGUUCGGAUCUGCACUUCCAGC: -2.21
CAAGUCCUGUGCUACACAUCGUAUGUACCGAAUCGGGUGGGUUUUUUUGGGUGGGAAAGUAUUAUGUUACGCCGUUCGGAUCUGCACUUC: -0.0421
UAACUUUAGAGGAGGAUCUGAUGGAUAUGGCAGUGGACGUGGAUUUGGGGAUGGCUAUAAUGGUUAUGGAGGAGGACCUGGAGGUGGCAA: 0.113
